Results collected from several papers.
Protocols differ between the studies behind these lines.
Sequence of UniProt P42336 (whole entry, unmodified, looked up): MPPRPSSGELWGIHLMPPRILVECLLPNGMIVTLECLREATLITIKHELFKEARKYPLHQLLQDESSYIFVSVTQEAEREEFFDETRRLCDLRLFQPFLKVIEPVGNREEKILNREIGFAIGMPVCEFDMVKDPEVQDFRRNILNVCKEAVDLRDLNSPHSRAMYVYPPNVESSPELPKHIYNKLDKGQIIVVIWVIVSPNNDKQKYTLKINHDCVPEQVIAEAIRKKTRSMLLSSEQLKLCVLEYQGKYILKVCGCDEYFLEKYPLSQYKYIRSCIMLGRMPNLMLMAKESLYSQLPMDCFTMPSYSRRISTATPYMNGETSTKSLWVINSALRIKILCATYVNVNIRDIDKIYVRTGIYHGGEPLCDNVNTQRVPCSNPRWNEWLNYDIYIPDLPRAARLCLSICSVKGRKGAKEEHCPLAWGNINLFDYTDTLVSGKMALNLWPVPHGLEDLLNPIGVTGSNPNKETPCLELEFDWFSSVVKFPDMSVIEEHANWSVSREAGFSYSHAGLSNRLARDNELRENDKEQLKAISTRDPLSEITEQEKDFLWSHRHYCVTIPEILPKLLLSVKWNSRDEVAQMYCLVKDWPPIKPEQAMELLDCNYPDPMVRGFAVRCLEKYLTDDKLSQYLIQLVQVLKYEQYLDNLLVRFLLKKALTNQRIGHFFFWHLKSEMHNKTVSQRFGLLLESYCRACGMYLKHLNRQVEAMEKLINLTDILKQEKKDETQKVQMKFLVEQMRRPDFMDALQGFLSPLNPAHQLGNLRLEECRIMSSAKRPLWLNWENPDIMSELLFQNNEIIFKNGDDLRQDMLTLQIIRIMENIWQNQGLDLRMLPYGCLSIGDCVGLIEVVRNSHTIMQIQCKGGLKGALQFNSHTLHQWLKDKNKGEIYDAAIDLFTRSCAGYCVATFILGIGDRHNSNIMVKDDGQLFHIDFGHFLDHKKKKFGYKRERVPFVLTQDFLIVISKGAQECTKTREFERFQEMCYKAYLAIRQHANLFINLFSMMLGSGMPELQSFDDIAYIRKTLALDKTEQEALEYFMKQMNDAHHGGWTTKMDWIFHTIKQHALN
Sequence of UniProt Q16832 (whole entry, looked up): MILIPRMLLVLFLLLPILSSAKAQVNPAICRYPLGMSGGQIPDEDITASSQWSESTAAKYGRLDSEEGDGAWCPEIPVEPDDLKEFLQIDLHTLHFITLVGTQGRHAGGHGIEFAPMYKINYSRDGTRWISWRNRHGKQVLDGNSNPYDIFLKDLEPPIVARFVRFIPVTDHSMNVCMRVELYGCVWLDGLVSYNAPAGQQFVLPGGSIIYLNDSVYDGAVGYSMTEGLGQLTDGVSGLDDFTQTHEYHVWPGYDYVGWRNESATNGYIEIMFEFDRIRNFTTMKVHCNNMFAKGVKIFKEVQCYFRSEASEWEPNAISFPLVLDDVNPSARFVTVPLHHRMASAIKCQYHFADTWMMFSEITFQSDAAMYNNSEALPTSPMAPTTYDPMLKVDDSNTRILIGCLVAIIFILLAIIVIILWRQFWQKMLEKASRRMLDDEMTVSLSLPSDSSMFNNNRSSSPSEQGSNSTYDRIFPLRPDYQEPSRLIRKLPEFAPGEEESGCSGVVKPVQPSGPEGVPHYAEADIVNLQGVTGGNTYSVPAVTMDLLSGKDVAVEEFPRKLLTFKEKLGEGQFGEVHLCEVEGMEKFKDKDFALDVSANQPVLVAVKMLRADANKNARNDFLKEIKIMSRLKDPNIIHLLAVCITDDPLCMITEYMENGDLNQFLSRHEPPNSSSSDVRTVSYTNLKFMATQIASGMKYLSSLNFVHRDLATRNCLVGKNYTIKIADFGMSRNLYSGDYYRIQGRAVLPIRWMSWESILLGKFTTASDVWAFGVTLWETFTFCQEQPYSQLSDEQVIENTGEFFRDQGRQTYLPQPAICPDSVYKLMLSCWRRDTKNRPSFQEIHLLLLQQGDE
Sequence of UniProt Q13043 (whole entry, looked up): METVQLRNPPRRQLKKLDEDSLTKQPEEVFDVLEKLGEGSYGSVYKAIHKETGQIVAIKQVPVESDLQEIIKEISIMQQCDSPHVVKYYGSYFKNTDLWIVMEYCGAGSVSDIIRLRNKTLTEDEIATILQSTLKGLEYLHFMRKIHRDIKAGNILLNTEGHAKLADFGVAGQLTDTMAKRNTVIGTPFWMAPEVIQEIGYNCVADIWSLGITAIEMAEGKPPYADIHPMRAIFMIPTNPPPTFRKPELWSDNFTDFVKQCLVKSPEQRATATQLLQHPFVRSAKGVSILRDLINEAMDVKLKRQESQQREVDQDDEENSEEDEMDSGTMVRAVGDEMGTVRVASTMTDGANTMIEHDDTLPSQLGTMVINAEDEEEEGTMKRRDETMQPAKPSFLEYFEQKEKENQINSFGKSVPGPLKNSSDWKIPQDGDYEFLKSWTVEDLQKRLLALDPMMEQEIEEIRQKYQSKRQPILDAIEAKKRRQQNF
Sequence of UniProt Q6DT37 (whole entry, looked up): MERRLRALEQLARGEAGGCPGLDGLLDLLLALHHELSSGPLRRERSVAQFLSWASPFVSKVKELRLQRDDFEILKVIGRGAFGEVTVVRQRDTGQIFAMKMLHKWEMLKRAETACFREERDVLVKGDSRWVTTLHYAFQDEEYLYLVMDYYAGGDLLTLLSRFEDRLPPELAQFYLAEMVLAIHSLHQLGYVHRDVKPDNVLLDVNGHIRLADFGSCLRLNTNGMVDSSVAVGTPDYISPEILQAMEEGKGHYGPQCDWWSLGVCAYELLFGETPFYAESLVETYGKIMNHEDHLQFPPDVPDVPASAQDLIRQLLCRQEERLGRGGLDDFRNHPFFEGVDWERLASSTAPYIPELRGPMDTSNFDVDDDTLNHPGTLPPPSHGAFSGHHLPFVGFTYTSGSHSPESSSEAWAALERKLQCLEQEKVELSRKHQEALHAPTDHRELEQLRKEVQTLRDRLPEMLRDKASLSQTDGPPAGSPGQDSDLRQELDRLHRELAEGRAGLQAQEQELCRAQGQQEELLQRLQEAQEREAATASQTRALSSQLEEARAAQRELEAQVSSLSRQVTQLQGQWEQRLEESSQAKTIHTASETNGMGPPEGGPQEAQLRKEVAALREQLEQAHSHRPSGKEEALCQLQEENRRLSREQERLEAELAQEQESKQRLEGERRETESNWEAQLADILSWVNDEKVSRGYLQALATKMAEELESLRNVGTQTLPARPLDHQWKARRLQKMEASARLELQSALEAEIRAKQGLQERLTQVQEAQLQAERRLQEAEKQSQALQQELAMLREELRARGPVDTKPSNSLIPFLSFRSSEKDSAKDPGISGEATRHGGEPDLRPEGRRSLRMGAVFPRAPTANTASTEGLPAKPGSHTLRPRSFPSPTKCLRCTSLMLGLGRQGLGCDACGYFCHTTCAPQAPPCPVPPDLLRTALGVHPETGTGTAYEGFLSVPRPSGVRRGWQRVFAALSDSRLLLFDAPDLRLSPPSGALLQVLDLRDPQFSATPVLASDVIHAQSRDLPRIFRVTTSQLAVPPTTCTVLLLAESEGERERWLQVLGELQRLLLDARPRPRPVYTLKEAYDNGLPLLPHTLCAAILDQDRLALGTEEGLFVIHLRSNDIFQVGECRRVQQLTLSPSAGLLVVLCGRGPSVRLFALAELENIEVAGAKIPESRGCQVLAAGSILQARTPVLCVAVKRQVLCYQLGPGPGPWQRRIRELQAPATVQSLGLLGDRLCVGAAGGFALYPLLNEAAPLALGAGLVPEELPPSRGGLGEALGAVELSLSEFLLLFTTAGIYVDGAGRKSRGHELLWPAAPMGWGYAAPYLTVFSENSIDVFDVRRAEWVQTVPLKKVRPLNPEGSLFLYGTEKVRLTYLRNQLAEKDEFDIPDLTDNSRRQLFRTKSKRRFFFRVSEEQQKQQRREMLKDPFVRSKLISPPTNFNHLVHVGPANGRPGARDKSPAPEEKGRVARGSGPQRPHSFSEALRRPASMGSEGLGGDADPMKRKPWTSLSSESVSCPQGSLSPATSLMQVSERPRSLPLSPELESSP
Sequence of UniProt P05164 (whole entry, looked up): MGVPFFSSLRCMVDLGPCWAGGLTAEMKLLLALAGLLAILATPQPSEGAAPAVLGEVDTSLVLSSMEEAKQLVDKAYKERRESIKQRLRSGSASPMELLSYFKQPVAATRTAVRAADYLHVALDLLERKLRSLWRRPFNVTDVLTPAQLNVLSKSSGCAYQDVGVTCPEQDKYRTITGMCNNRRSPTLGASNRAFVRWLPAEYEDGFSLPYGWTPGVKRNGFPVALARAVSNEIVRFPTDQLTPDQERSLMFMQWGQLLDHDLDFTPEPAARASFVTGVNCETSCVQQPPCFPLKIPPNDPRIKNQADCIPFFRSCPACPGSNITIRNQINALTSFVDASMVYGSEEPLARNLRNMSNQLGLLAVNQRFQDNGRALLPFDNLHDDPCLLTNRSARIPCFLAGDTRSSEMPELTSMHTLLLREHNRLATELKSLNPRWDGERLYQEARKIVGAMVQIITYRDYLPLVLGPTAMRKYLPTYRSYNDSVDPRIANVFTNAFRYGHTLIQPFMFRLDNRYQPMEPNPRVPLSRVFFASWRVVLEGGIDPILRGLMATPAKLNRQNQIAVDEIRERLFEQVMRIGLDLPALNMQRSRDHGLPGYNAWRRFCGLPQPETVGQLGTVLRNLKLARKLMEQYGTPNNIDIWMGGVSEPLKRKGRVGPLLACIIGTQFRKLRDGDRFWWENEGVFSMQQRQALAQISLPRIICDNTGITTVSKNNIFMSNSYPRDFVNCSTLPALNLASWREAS
Sequence of UniProt P48039 (whole entry, looked up): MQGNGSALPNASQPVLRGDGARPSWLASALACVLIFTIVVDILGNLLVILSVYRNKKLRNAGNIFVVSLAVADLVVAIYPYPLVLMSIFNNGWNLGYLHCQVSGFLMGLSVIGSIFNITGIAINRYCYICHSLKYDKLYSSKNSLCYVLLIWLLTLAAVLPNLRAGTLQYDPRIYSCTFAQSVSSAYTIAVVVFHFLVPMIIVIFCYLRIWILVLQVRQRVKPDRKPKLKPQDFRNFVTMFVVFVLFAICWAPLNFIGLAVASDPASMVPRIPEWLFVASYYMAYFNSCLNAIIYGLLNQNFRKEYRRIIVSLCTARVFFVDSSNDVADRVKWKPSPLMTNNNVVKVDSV

`C1=C/COCc2cc(ccc2OCCN2CCCC2)Nc2nccc(n2)-c2cccc(c2)COC/1` has a remaining binding of 56% (DDR2 (Homo sapiens, UniProt Q16832); binding; 0.1 µM).
`Nc1ncnc2occ(-c3ccc(NC(=O)Nc4cc(C(F)(F)F)ccc4F)cc3)c12` gave a remaining signal of 49% (PIK3CA (Homo sapiens, UniProt P42336, E545K); cell-free assay, inhibitor; 20 µM).
For `COc1cccc(-c2n[nH]c(SCc3ccccn3)n2)c1OC`, the concentration was 7800 ng/mL (female Sprague-Dawley rat, plasma; oral, 30 mg/kg, 2 h, single dose).
With `COc1ccc2[nH]cc(CCNC(C)=O)c2c1I` the Emax was 33% (MTNR1A (Homo sapiens, UniProt P48039); GTPγS binding, agonist, radiometric; cell membranes).
`N[C@@H]1CCN(c2nccc(-c3cnn4ncccc34)n2)C1` has a remaining binding of 100% (CDC42BPG (Homo sapiens, UniProt Q6DT37); binding; 1 µM).
For `CNc1ncc2c(/C=C/C(=O)N3CCC(OC)CC3)nn(Cc3cccc(C(F)(F)F)c3)c2n1`, the remaining activity was 103% (MAPK7 (Homo sapiens, UniProt Q13164); enzyme activity, inhibitor, radiometric; 1 µM).
`CCCCC(=O)Nc1ccc(-c2ccc3ncn(CCC)c(=O)c3c2)cn1` gave a remaining binding of 98% (PIK3CA (Homo sapiens, UniProt P42336, C420R); binding, competition with immobilised ligand; 0.5 µM).
`CCCN(O)N=Nc1ccc(S(=O)(=O)Nc2nccs2)cc1` has an inhibition of 22% (DPPH scavenging, absorbance; 240 µg/mL).
The remaining activity of `NC/C(=C\F)COc1cccc(Cn2c(=S)[nH]c(=O)c3[nH]cnc32)c1` is reported as 13.4% (Myeloperoxidase (MPO, Homo sapiens, UniProt P05164); enzyme activity, inhibitor; 0.625 µM).
`Cc1cccc(N(O)N=Nc2ccc(S(=O)(=O)Nc3onc(C)c3C)cc2)c1` has an inhibition of 33.7% (DPPH scavenging, absorbance; 300 µg/mL).
`Cc1cc([C@@H](C)Nc2ccccc2C(=O)O)c2nc(N3CCC(F)(F)CC3)c(C#N)c(=O)n2c1` gave a remaining binding of 95% (CSNK1D (Homo sapiens, UniProt P48730); binding, competition with immobilised ligand; 1 µM).
For `C=CC(=O)N1CCC(COCC(=O)N2CCN(c3nc(-c4cnc(N)nc4C(F)F)nc(N4CCOC[C@@H]4C)n3)CC2)CC1`, the remaining binding was 95% (SRPK3 (Homo sapiens, UniProt Q9UPE1); binding, competition with immobilised ligand; 1 µM).
The kon of `COc1ccc(F)cc1C(=O)NCc1ccc(-c2nn([C@@H](C)C(F)(F)F)c(N)c2C(N)=O)cc1` is reported as 85000 M⁻¹ s⁻¹ (BTK (Homo sapiens, UniProt Q06187, C481S); binding, SPR).
With `O=C(Nc1ccccc1)Nc1ccc(Oc2nnc(-c3ccc(Cl)cc3)c3ccccc23)cc1` the viability was 55.9% (HepG2; cell growth or viability, MTT; 78 nM, 24 h).
`O=c1nc(N2CCN(CC3CCCCC3)CC2)sc2c([N+](=O)[O-])cc(C(F)(F)F)cc12` has a concentration of 1170 ng/mL (CD-1 mouse, lung; intravenous, 10 mg/kg, 4 h).
`COc1cc(-c2cncc3c2CN(C)Cc2cc(N4CCNCC4)ccc2-3)cc(OC)c1OC` has a remaining activity of 97% (STK4 (Homo sapiens, UniProt Q13043); enzyme activity, inhibitor; 1 µM).

Some of these lines once more:
The remaining activity of `NC/C(=C\F)COc1cccc(Cn2c(=S)[nH]c(=O)c3[nH]cnc32)c1` is reported as 13.4% (Myeloperoxidase (MPO, Homo sapiens, UniProt P05164); enzyme activity, inhibitor; 0.625 µM).
`Cc1cc([C@@H](C)Nc2ccccc2C(=O)O)c2nc(N3CCC(F)(F)CC3)c(C#N)c(=O)n2c1` gave a remaining binding of 95% (CSNK1D (Homo sapiens, UniProt P48730); binding, competition with immobilised ligand; 1 µM).
